Assay results from different studies.
Values joined by “and” are separate records of one study, mostly repeats; a detail may differ. ± marks the error that the study gave.
ESR2: Estrogen receptor beta (ESR2, Homo sapiens, UniProt Q92731)
Chain of UniProt Q92731 (whole entry, looked up): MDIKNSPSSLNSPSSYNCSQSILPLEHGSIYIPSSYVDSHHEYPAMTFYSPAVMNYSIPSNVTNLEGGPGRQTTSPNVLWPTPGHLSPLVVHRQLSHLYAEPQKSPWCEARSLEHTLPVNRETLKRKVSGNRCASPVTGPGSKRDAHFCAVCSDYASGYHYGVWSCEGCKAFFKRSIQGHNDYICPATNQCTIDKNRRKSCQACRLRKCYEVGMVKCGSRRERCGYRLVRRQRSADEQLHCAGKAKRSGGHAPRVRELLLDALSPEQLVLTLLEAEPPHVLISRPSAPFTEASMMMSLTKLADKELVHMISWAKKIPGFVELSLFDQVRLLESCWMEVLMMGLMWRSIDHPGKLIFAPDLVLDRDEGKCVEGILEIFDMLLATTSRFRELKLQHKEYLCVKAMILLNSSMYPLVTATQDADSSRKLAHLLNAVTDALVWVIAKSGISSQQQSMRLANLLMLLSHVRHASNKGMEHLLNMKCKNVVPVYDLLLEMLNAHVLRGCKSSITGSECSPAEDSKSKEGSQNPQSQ
BRAP ZnF-UBD domain: BRCA1-associated protein, ZnF-UBD domain (BRAP, Homo sapiens, UniProt Q7Z569)
Chain of UniProt Q7Z569 (whole entry, looked up): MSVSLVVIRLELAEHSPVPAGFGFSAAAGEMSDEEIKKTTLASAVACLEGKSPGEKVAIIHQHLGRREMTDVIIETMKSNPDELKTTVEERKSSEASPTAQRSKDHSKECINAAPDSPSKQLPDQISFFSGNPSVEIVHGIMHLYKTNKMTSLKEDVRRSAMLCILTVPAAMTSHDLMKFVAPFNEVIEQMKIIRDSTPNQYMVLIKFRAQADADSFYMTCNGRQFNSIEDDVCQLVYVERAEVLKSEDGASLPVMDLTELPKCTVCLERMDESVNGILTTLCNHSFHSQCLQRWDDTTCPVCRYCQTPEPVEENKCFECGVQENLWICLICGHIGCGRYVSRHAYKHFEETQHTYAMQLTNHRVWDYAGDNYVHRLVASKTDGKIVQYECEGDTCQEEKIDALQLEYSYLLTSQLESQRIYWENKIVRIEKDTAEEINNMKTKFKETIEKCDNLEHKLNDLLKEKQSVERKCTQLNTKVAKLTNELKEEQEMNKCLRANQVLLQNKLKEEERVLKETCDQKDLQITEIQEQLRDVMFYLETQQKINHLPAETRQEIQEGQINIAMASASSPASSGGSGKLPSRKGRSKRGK
GPR84: G-protein coupled receptor 84 (GPR84, Homo sapiens, UniProt Q9NQS5)
Chain of UniProt Q9NQS5 (whole entry, looked up): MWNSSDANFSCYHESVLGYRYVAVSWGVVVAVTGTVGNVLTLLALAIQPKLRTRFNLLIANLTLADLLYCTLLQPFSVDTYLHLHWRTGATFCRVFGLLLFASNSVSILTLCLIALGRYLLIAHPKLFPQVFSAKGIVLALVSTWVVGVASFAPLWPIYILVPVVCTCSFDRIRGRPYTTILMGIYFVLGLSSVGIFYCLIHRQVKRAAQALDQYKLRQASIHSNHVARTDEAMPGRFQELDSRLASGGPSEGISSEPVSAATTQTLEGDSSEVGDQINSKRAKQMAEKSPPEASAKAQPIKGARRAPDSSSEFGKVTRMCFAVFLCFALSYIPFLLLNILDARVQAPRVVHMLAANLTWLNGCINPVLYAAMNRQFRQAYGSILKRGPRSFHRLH
MIF: Macrophage migration inhibitory factor (MIF, Homo sapiens, UniProt P14174)
Chain of UniProt P14174 (whole entry, looked up): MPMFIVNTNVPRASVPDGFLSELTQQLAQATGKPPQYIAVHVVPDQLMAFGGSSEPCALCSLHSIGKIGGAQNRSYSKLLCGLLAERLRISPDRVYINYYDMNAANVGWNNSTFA
HTR2C: 5-hydroxytryptamine receptor 2C (HTR2C, Homo sapiens, UniProt P28335)
Chain of UniProt Q16774 (whole entry, unmodified, looked up): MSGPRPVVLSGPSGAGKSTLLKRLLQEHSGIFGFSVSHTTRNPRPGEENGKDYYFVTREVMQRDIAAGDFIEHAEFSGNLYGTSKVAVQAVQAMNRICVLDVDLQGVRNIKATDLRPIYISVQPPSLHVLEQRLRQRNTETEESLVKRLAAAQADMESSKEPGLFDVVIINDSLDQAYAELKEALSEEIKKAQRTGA
Chain of UniProt P28335 (whole entry, looked up): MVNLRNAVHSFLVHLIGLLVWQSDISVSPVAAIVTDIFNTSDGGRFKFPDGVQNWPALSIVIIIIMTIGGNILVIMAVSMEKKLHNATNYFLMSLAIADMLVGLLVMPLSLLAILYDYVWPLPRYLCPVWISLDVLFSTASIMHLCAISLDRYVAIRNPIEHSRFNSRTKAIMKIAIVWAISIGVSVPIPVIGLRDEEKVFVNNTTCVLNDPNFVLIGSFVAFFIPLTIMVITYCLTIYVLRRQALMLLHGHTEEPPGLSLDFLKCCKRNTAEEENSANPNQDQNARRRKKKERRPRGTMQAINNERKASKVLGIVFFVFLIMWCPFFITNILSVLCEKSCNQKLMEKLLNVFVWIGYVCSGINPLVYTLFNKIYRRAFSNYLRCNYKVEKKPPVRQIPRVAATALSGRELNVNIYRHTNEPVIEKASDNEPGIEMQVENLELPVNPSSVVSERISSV
Chain of UniProt P51575 (whole entry, unmodified, looked up): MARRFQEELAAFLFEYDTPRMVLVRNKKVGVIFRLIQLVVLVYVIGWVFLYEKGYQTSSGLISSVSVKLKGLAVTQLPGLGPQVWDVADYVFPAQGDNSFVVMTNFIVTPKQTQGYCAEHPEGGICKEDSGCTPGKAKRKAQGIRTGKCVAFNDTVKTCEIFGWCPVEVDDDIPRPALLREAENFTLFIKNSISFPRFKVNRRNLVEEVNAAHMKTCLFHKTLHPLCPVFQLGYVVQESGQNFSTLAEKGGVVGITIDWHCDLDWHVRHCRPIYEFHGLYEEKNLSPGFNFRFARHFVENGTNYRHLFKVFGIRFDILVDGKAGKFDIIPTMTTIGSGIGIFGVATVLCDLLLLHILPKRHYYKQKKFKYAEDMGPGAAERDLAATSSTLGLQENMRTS
Chain of UniProt P17787 (whole entry, looked up): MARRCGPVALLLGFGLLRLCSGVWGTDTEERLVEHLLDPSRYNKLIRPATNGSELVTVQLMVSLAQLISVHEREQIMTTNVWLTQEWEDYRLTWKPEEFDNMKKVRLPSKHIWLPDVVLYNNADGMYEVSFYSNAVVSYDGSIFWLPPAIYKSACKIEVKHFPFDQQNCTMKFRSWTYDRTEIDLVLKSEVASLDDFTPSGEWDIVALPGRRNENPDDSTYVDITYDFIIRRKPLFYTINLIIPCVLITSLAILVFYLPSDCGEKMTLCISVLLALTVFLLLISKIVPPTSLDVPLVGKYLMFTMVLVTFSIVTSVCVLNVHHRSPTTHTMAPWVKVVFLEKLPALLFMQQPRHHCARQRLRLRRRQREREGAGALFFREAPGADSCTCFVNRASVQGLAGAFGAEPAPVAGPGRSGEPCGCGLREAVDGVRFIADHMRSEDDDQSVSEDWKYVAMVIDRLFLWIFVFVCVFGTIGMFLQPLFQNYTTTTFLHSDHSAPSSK
Chain of UniProt P43681 (whole entry, looked up): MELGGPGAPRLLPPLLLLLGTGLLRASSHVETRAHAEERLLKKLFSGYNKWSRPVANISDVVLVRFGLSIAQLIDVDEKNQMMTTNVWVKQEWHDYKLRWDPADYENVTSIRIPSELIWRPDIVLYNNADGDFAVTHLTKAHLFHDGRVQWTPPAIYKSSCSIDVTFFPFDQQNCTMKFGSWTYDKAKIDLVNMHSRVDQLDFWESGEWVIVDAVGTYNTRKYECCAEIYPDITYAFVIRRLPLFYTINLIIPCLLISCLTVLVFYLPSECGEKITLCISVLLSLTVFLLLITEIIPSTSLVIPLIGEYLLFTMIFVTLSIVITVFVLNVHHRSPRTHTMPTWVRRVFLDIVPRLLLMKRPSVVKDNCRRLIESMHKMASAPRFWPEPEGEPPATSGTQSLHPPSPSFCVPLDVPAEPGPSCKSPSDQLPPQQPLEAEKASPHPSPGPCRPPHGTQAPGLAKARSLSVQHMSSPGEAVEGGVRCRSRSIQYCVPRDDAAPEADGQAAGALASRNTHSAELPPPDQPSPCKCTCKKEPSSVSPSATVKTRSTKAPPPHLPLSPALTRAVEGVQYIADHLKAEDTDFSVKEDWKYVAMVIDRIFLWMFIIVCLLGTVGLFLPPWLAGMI
Chain of UniProt Q92633 (whole entry, unmodified, looked up): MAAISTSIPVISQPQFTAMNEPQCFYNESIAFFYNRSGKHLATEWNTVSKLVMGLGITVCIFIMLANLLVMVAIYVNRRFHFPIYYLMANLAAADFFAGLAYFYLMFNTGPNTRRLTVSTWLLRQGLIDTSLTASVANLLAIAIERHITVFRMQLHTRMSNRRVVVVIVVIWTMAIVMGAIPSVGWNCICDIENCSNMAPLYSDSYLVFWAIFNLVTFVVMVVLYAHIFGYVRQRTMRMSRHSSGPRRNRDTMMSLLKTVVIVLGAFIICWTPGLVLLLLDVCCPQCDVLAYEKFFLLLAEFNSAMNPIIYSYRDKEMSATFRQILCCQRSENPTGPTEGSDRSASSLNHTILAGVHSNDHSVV
Chain of UniProt Q96GD4 (whole entry, looked up): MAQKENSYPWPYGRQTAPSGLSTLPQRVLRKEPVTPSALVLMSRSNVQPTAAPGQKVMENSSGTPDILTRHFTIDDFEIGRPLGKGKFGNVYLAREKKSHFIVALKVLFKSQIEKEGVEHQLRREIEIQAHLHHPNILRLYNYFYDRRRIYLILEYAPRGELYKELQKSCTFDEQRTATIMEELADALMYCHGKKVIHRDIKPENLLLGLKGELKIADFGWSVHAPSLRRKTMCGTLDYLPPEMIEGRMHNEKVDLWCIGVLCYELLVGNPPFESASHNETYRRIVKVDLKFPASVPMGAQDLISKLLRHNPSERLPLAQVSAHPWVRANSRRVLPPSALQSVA
Chain of UniProt P34995 (whole entry, unmodified, looked up): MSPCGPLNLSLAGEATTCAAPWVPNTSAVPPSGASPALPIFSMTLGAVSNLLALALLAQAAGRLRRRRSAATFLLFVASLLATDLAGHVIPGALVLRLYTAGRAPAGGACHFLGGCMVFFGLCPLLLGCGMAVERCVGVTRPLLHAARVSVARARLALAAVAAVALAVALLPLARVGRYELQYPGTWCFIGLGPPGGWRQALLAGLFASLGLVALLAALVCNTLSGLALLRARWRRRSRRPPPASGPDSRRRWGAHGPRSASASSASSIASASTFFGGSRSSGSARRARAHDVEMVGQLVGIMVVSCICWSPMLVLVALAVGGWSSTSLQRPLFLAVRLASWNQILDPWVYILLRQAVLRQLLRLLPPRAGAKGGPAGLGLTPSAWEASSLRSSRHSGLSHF

Compound	tested on	assay	test system	conditions	scale	endpoint	value
O=c1cc(-c2ccc(O)cc2)oc2cc(O)c(O)c(O)c12	ESR2	array formation, agonist	GFP-ERβ PRL-HeLa	1 h		EC50	4.38 µM
O=C(O)CCn1cccn1	BRAP ZnF-UBD domain					Kd	74.4 µM
COc1ccc(-c2oc3c(CC=C(C)C)c(O[C@@H]4O[C@H](CO)[C@@H](O)[C@H](O)[C@H]4O)cc(O)c3c(=O)c2O[C@@H]2O[C@@H](C)[C@H](O)[C@@H](O)[C@H]2O)cc1	ESR2	array formation, agonist	GFP-ERβ PRL-HeLa	1 h		EC50	1.61 µM
O=c1cc(NCCCCCCCO)[nH]c(=O)[nH]1	GPR84	agonist				EC50	2.14 µM
COc1ccc(-c2cc(=O)c3c(O)c(OC)c(OC)c(OC)c3o2)cc1OC	ESR2	array formation, agonist	GFP-ERβ PRL-HeLa	1 h		EC50	2.14 µM
CCCCCCCCNc1[nH]c(=O)[nH]c(=O)c1N=O	GPR84	agonist				EC50	0.417 µM
O=c1cc(-c2ccccc2)oc2cc(O)cc(O)c12	ESR2	array formation, agonist	GFP-ERβ PRL-HeLa	1 h		EC50	4.28 µM
COc1cc(Nc2ncc3c(n2)-c2ccc(Cl)cc2C(c2c(F)cccc2OC)=NC3)ccc1C(=O)NCCOCCOCCNC(=O)COc1cccc2c1C(=O)N(C1CCC(=O)NC1=O)C2=O (stereo not drawn)	HCK (Homo sapiens, UniProt P08631)	binding, kinobead competition	MV4-11 cell lysate			EC50	> 30 µM
CCCCCCNc1[nH]c(=O)[nH]c(=O)c1N=O	GPR84	cAMP level, agonist	human cells			EC50	7.73 ± 0.54 µM
CC(C)C[C@H](NC(=O)C[C@H](O)[C@H](CC(C)C)NC(=O)[C@H](Cc1c[nH]cn1)NC(=O)CNC(=O)[C@@H](NC(=O)[C@H](C)NC(=O)[C@H](Cc1c[nH]c2ccccc12)NC(=O)[C@H](CCC(N)=O)NC(=O)[C@@H](Cc1ccccc1)NC(=O)COCCOCCNC(=O)CCC(C(=O)O)N1CCN(CC(=O)O)CCN(CC(=O)O)CCN(CC(=O)O)CC1)C(C)C)C(N)=O (stereo partly drawn) [lutetium-177 labelled]			BALB/c nu/nu mice, female, kidneys	50 pmol, 1 h, added: PBS co-injection		tissue uptake	5 ± 1 %ID/g
Nc1cccc2c1C(=O)N(C1CCC(=O)NC1=O)C2=O (stereo not drawn)	Aurora kinase B (AURKB, Homo sapiens, UniProt Q96GD4)	NanoBRET target engagement	HEK293 expressing NanoLuc fusion	2 h		EC50	> 30 µM
COc1cc(C2Oc3ccc([C@H]4Oc5cc(O)cc(O)c5C(=O)[C@@H]4O)cc3OC2CO)ccc1O (stereo partly drawn)	ESR2	array formation, agonist	GFP-ERβ PRL-HeLa	1 h		EC50	1.1 µM
COc1ccc(CCNc2cc(=O)[nH]c(=O)[nH]2)cc1OC	GPR84	cAMP level, agonist	human cells			EC50	0.813 ± 0.229 µM
O=C(NCc1cn(-c2ccc(O)c(F)c2)nn1)c1cc2cc(Cl)ccc2[nH]1	MIF	binding, competitive inhibitor, fluorescent indicator displacement	biochemical	10 min, MIF 100 nM, added: 7-hydroxycoumarin indicator 50 nM		EC50	4.3 ± 0.4 µM
O=C(Nc1nc2cccc(-c3ccc(CN4CCS(=O)(=O)CC4)cc3)n2n1)C1CC1		item: aspartate aminotransferase increased	human rheumatoid arthritis patients	oral, 300 mg once daily, 4 weeks, regardless of relatedness		treatment-emergent adverse events	0%
CCn1c(-c2nc3cc(C(=O)N4CCC[C@@H](N)C4)cc(OC)c3n2C)cc2cccnc21	HTR2C	intracellular calcium, agonist, luminescence				EC50	> 39.8 µM
Nc1nc2c(ncn2[C@@H]2O[C@H](COP(=O)(O)O)[C@@H](O)[C@H]2O)c(=O)[nH]1	GUK1 (Homo sapiens, UniProt Q16774, D103A)	enzyme activity, NADH-coupled		125 µM		reaction rate	9.79 s⁻¹ and 8.5 s⁻¹ and 8.92 s⁻¹
Clc1cccc(Cl)c1CSc1nnc(-c2cnccn2)s1	Piezo1 (Mus musculus, UniProt E2JF22)	agonist				EC50	18.4 ± 8.8 µM
CCn1cc(-c2cc(Cn3ccnc3)cc3c2CCN([C@H](c2cc(OC)ccn2)C2CC2)C3=O)c(C(F)(F)F)n1	SUIT-2	cell growth, inhibitor		120 h		EC50	> 30 µM
Cc1nn(-c2nc3c(F)cc(F)cc3s2)c(O)c1C(c1ccccc1C(=O)O)c1c(C)nn(-c2nc3c(F)cc(F)cc3s2)c1O	Cyclic GMP-AMP synthase, catalytic domain; with DNA (CGAS, Homo sapiens, UniProt Q8N884)	cGAS-DNA phase separation, inhibitor				EC50	1.22 µM

Compound	tested on	assay	test system	conditions	scale	endpoint	value
O=C(O)CC[C@H](NC(=O)N[C@@H](CCCCNC(=O)[C@H](Cc1ccc2ccccc2c1)NC(=O)CCCCCNC(=O)CN1CCN(CC(=O)O)CCN(CC(=O)O)CCN(CC(=O)O)CC1)C(=O)O)C(=O)O [gallium-68 labelled]		PET/CT	mouse, 22Rv1 xenograft, muscle	intravenous, 3.7 MBq, 4 h		SUVmean	0.08 ± 0.01 SUV
O=c1cc(NCCc2ccc(F)cc2)[nH]c(=O)[nH]1	GPR84	cAMP level, agonist	human cells			EC50	0.0653 ± 0.0136 µM
N[C@@H](CCC(=O)O)C(=O)O	uncharacterized protein (Ixodes scapularis, UniProt A0A0N9E2I2)	ion current, agonist, two-electrode voltage clamp	Xenopus oocytes	holding potential -80 mV	reference: 1 mM compound response	EC50	230 µM
O=c1c(-c2ccc(O)cc2)coc2cc(O[C@@H]3O[C@H](CO)[C@@H](O)[C@H](O)[C@H]3O)cc(O)c12	ESR2	array formation, agonist	GFP-ERβ PRL-HeLa	1 h		EC50	0.782 µM
O=C(O)CCc1ccno1	BRAP ZnF-UBD domain					Kd	> 1000 µM
CCCCCNc1cc(=O)[nH]c(=O)[nH]1	GPR84	cAMP				EC50	0.457 µM
CCOCc1nc(O)c(-c2nnc(Cc3ccc(Cl)cn3)o2)c(O)c1-c1c(OC)cccc1OC	Apelin receptor (APLNR, Homo sapiens, UniProt P35414)	GαoB activation, agonist, BRET biosensor	HEK293			EC50	0.00023 ± 4e-05 µM
Oc1cc(NCCc2ccccc2)nc(O)n1	GPR84	agonist				EC50	1.62 µM
CCCCC[C@H](O)/C=C/[C@H]1[C@H](O)CC(=O)[C@@H]1C/C=C\CCCC(=O)O	PTGER1 (Homo sapiens, UniProt P34995, R355A)	IP1 accumulation, agonist	AD293	EP1 R355A mutant		EC50	0.00984 µM
CCn1c(-c2nc3ccc(C(=O)N4CCCC(N)C4)cc3n2C)cc2ccccc21 (stereo not drawn)	HTR2C	intracellular calcium, agonist, luminescence				EC50	> 39.8 µM
Cc1cccc(CCNc2cc(=O)[nH]c(=O)[nH]2)c1	GPR84	cAMP				EC50	0.0794 µM
Nc1ncnc2c1ncn2[C@@H]1O[C@H](COP(=O)(O)CP(=O)(O)OP(=O)(O)O)[C@@H](O)[C@H]1O	P2X purinoceptor 1 (P2RX1, Homo sapiens, UniProt P51575, R139A)	saturation binding	HEK293	13 nM		specific binding	814 CCPM and 608 CCPM
COc1c(O)cc2oc(-c3ccccc3)cc(=O)c2c1O	ESR2	array formation, agonist	GFP-ERβ PRL-HeLa	1 h		EC50	2.67 µM
CS(=O)(=O)C1(CNCc2cccc3cccnc23)CC1	HTR2C	receptor activation, agonist, Tango β-arrestin				EC50	> 1 µM
CCc1oc2c([C@H](CO)N(CC)CC)cccc2c1C	LPAR1 (Homo sapiens, UniProt Q92633, W210A)	Gi activation, agonist, NanoBiT G-protein dissociation	HEK293T	W210A mutant		EC50	0.00676 µM
OC[C@H]1O[C@@H](Oc2cc3c(O)cc(O)cc3[o+]c2-c2ccc(O)c(O)c2)[C@H](O)[C@@H](O)[C@@H]1O	ESR2	array formation, agonist	GFP-ERβ PRL-HeLa	1 h		EC50	2.2 µM
CCOc1ccc(NC(=O)O[C@@H](Cn2nc(C(C)C)cc2C(C)C)C(C)C)cc1	Neuronal acetylcholine receptor; alpha4/beta2, (α4)2(β2)3 stoichiometry (Homo sapiens, UniProt P17787+P43681)	ACh-evoked current, positive allosteric modulator, two-electrode voltage clamp		high-sensitivity stoichiometry, added: ACh 3 µM		EC50	1 µM and ~1 µM
O=C(NCc1cn(-c2ccc(O)c(F)c2)nn1)c1cc2ccccc2[nH]1	MIF	binding, competitive inhibitor, fluorescent indicator displacement	biochemical	10 min, MIF 100 nM, added: 7-hydroxycoumarin indicator 50 nM		EC50	12.9 ± 1 µM
Cn1cc(-c2ccc(-c3cncc(Cl)c3N3CCC4(CCNC4=O)CC3)cc2)cn1	COLO 205	gene expression, microarray, item: EDN2 mRNA		concentration not given, 2 h	reference: untreated cells	log2 fold change	1.92

Repeated from above:
Compound	tested on	assay	test system	conditions	scale	endpoint	value
CCCCC[C@H](O)/C=C/[C@H]1[C@H](O)CC(=O)[C@@H]1C/C=C\CCCC(=O)O	PTGER1 (Homo sapiens, UniProt P34995, R355A)	IP1 accumulation, agonist	AD293	EP1 R355A mutant		EC50	0.00984 µM
CCc1oc2c([C@H](CO)N(CC)CC)cccc2c1C	LPAR1 (Homo sapiens, UniProt Q92633, W210A)	Gi activation, agonist, NanoBiT G-protein dissociation	HEK293T	W210A mutant		EC50	0.00676 µM
N[C@@H](CCC(=O)O)C(=O)O	uncharacterized protein (Ixodes scapularis, UniProt A0A0N9E2I2)	ion current, agonist, two-electrode voltage clamp	Xenopus oocytes	holding potential -80 mV	reference: 1 mM compound response	EC50	230 µM
CCCCCNc1cc(=O)[nH]c(=O)[nH]1	GPR84	cAMP				EC50	0.457 µM
